# Assay results from different studies.
# Protocols differ between the studies behind these lines. Numbers after ± are the reported error.
SMILES,assay,system,conditions,scale,measurement,value
CCCC[C@H](NC(=O)[C@@H](NC(=O)[C@H](CC(=O)O)NC(=O)[C@H](CCC(N)=O)NC(=O)[C@H](CC(C)C)NC(=O)[C@H](CC(C)C)NC(=O)[C@H](CCCN)NC(=O)[C@H](CCCNC(=N)N)NC(=O)[C@H](C)NC(=O)[C@H](CO)NC(=O)[C@H](CC(C)C)NC(=O)[C@H](CCC(N)=O)NC(=O)[C@H](CC)NC(=O)[C@H](CC(C)C)NC(=O)[C@@H](NC(=O)[C@H](CCCN)NC(=O)[C@H](CCCNC(=N)N)NC(=O)[C@H](Cc1ccc(O)cc1)NC(=O)[C@H](CO)NC(=O)[C@H](CCC(N)=O)NC(=O)[C@@H](NC(=O)[C@H](Cc1ccccc1)NC(=O)[C@@H](NC(=O)[C@H](C)NC(=O)[C@H](CC(=O)O)NC(=O)[C@H](C)NC(=O)[C@H](Cc1ccc(O)cc1)NC)[C@@H](C)CC)[C@@H](C)O)C(C)C)[C@@H](C)CC)C(=O)N[C@@H](CC(=O)O)C(=O)NCCCCNC(=N)N,GH release,"rat, male, serum","subcutaneous, 3 µg/kg, 15 min",reference: reference GHRH agonist JI-38,relative potency,1.45
CNC(=O)N(C)c1ccc(C(=O)Nc2ccc(F)cc2C(=O)Nc2ccc(Cl)cn2)cc1,,human plasma,,,concentration doubling prothrombin time,10 ± 2 µM
CCCC[C@H](NC(=O)[C@@H](NC(=O)[C@H](CC(=O)O)NC(=O)[C@H](CCC(N)=O)NC(=O)[C@H](CC(C)C)NC(=O)[C@H](CC(C)C)NC(=O)[C@H](CCCN)NC(=O)[C@H](CCCNC(=N)N)NC(=O)[C@H](C)NC(=O)[C@H](CO)NC(=O)[C@H](CC(C)C)NC(=O)[C@H](CCC(N)=O)NC(=O)[C@H](CC)NC(=O)[C@H](CC(C)C)NC(=O)[C@@H](NC(=O)[C@H](CCCN)NC(=O)[C@H](CCCNC(=N)N)NC(=O)[C@H](Cc1ccc(O)cc1)NC(=O)[C@H](CO)NC(=O)[C@H](CCC(N)=O)NC(=O)[C@@H](NC(=O)[C@H](Cc1c(F)c(F)c(F)c(F)c1F)NC(=O)[C@@H](NC(=O)[C@H](C)NC(=O)[C@H](CC(=O)O)NC(=O)[C@@H](C)NC(=O)[C@H](Cc1ccc(O)cc1)NC)[C@@H](C)CC)[C@@H](C)O)C(C)C)[C@@H](C)CC)C(=O)N[C@@H](CC(=O)O)C(=O)N[C@@H](CCCNC(=N)N)C(=O)NC,GH release,"male rat, serum","subcutaneous, dose not given, 30 min",reference: GHRH(1-29)NH2,relative potency,148
CC(=O)Nc1cccc(CNC(=O)c2cnc3ccccc3c2C(F)(F)F)c1,larval locomotion,Drosophila melanogaster Tip60 RNAi larvae,"oral in food, dose not given",,effective concentration,≥ 1 µM
CCCC[C@H](NC(=O)[C@@H](NC(=O)[C@H](CC(=O)O)NC(=O)[C@H](CCC(N)=O)NC(=O)[C@H](CC(C)C)NC(=O)[C@H](CC(C)C)NC(=O)[C@H](CCCN)NC(=O)[C@H](CCCNC(=N)N)NC(=O)[C@H](C)NC(=O)[C@H](CO)NC(=O)[C@H](CC(C)C)NC(=O)[C@H](CCC(N)=O)NC(=O)[C@H](CC)NC(=O)[C@H](CC(C)C)NC(=O)[C@@H](NC(=O)[C@H](CCCN)NC(=O)[C@H](CCCNC(=N)N)NC(=O)[C@H](Cc1ccc(O)cc1)NC(=O)[C@H](CO)NC(=O)[C@H](CCC(N)=O)NC(=O)[C@@H](NC(=O)[C@H](Cc1ccccc1)NC(=O)[C@@H](NC(=O)[C@H](C)NC(=O)[C@H](CC(=O)O)NC(=O)[C@H](C)NC(=O)CCc1ccc(O)cc1)[C@@H](C)CC)[C@@H](C)O)C(C)C)[C@@H](C)CC)C(=O)N[C@@H](CC(=O)O)C(=O)NCCCCNC(=N)N,GH release,"male rat, serum","subcutaneous, dose not given, 15 min",reference: GHRH(1-29)NH2,relative potency,63.1
COc1cccc(OCCN2CCC[C@H](CN3CCc4cc(OC)c(OC)cc4CC3=O)C2)c1,,"VTA dopamine neurons, stress-naive male mice","intraperitoneal, 1 mg/kg",reference: baseline,burst firing (%SWB),no effect
CCCC[C@H](NC(=O)[C@@H](NC(=O)[C@H](CC(=O)O)NC(=O)[C@H](CCC(N)=O)NC(=O)[C@H](CC(C)C)NC(=O)[C@H](CC(C)C)NC(=O)[C@H](CCCN)NC(=O)[C@H](CCCNC(=N)N)NC(=O)[C@H](C)NC(=O)[C@H](CO)NC(=O)[C@H](CC(C)C)NC(=O)[C@H](CCC(N)=O)NC(=O)[C@H](CC)NC(=O)[C@H](CC(C)C)NC(=O)[C@@H](NC(=O)[C@H](CCCN)NC(=O)[C@H](CCCNC(=N)N)NC(=O)[C@H](Cc1ccc(O)cc1)NC(=O)[C@H](CO)NC(=O)[C@H](CC(N)=O)NC(=O)[C@@H](NC(=O)[C@H](Cc1ccccc1)NC(=O)[C@@H](NC(=O)[C@H](C)NC(=O)[C@H](CC(=O)O)NC(=O)[C@@H](C)NC(=O)[C@H](Cc1ccc(O)cc1)NC)[C@@H](C)CC)[C@@H](C)O)C(C)C)[C@@H](C)CC)C(=O)N[C@@H](CC(=O)O)C(=O)NCCCCNC(=N)N,GH release,"rat, male, serum","subcutaneous, 3 µg/kg, 15 min",reference: reference GHRH agonist JI-38,relative potency,1.08
N=C(N)NCCC[C@H](NC(=O)[C@@H]1CCCN1C(=O)[C@@H]1CSSCCC(=O)N[C@]2(CC[C@@H](c3ccccc3)CC2)C(=O)N[C@@H](Cc2ccccc2)C(=O)N[C@@H](CCC(N)=O)C(=O)N[C@@H](CC(N)=O)C(=O)N1)C(=O)NCC(N)=O,,conscious male rat,"subcutaneous, dose not given",reference: AVP 465 IU/mg,antidiuretic activity,45 IU/mg
CC[C@H](C)[C@@H]1NC(=O)[C@H](Cc2ccccc2)NC(=O)[C@H](CCC(=O)O)NC(=O)[C@H](CCCNC(=N)N)NC(=O)CNC(=O)[C@@H](NC(=O)[C@H](CC(C)C)NC(=O)[C@H](CCCNC(=N)N)NC(=O)[C@@H](NC(=O)CNC(=O)[C@H](Cc2ccc(O)cc2)NC(=O)[C@@H]2CCCN2C(=O)[C@H](C)NC(=O)[C@H](C)NC(=O)[C@@H](N)CCCNC(=N)N)C(C)C)CSSC[C@@H]2NC(=O)[C@@H](NC(=O)[C@H](CO)NC(=O)[C@H](CO)NC(=O)[C@H](CO)NC(=O)[C@H](CC(C)C)NC(=O)CNC(=O)[C@H](C)NC(=O)[C@H](CC(C)C)NC(=O)[C@@H](NC(=O)[C@@H](N)CC(=O)O)C(C)C)CSSC[C@H](NC(=O)CNC(=O)[C@H](Cc3c[nH]c4ccccc34)NC(=O)[C@H](CCCCN)NC2=O)C(=O)N[C@@H](CO)C(=O)N[C@@H](CCCCN)C(=O)N[C@@H](CO)C(=O)N[C@@H](CCC(=O)O)C(=O)N[C@@H]([C@@H](C)CC)C(=O)N[C@@H](CO)C(=O)N[C@@H](CO)C(=O)N[C@@H](CC(C)C)C(=O)N[C@H](C(=O)O)CSSC[C@@H](C(=O)NCC(=O)NCC(=O)N[C@@H](CO)C(=O)N[C@@H](CCCNC(=N)N)C(=O)N[C@@H](Cc2c[nH]c3ccccc23)C(=O)O)NC(=O)[C@H]([C@@H](C)O)NC(=O)[C@H](Cc2ccccc2)NC(=O)[C@H]([C@@H](C)CC)NC(=O)[C@H](C(C)C)NC(=O)[C@H](C)NC(=O)[C@H](CCCNC(=N)N)NC1=O,novelty-suppressed feeding test,fasted female Sprague-Dawley rats,"intranasal, 275 µg/kg, 10 min",reference: vehicle,total distance travelled,no effect
CC[C@H]1[C@@H](O)[C@@H]2[C@H](CC[C@]3(C)[C@@H]([C@H](C)CCOS(=O)(=O)[O-])CC[C@@H]23)[C@@]2(C)CC[C@@H](O)C[C@@H]12.[Na+],,ob/ob NASH mouse model,"oral, 3 mg/kg once daily, 8 weeks",,body weight,52.6 ± 0.8 g
Cc1cc(O)c(C=O)c2c1C(=O)Oc1c(CO)c(O)c3c(c1O2)C(O)OC3=O (centres unmarked),,"rat, male, streptozotocin-induced diabetes, cauda epididymis","5 mg/kg, 9 weeks",,sperm with detached head,26.5 ± 4.85%
CC(=O)Nc1ccc(OC(=O)CCC(=O)[O][Pt-2]23([O]C(=O)CCC(=O)Oc4ccc(NC(C)=O)cc4)([NH2+][C@@H]4CCCC[C@H]4[NH2+]2)[O]C(=O)C(=O)[O]3)cc1,flow cytometry,"BALB/c mouse, 4T1 tumour model, tumour tissue",dose not given,reference: CD3+ cells,CD8+ T cells,13.6%
CSc1nn(-c2ccccc2)c(NC(=O)/C(C#N)=C(\Nc2ccc(F)cc2)Nc2c(C)n(C)n(-c3ccccc3)c2=O)c1C#N,immunohistochemistry,rat CCl4 liver fibrosis,"20 mg/kg/day, 6 weeks",,α-SMA positive area,14.5%
[2H]C([2H])([2H])C(c1cc2nnc(-c3cc(F)ccc3F)n2nc1OCc1ncnn1C)(C([2H])([2H])[2H])C([2H])([2H])[2H],,"amygdala-kindled Wistar rats, amygdala","oral, 1 mg/kg, 2 h before stimulation",reference: baseline,afterdischarge duration change,-26%
CC(CCC(=O)NCc1ccc(C(=O)NO)cc1)C1CCC2C3C(O)CC4CC(O)CCC4(C)C3CCC12C (centres unmarked),,PCK rats,"oral gavage, 15 mg/kg/day, 5 months",reference: untreated,liver weight,decreased
Cc1cc2c(cc1C1(c3ncc(C(=O)O)cn3)CC1)C(C)(C)CCC2(C)C,"RNA sequencing, refers to: Mta2","rat, brain","dose not given, 24 h",reference: vehicle,log2 fold change,-0.34
Cc1nc(C)c(C=[N+]([O-])C(C)(C)C)nc1C,"Western blot, refers to: PGC-1α","mouse, MPTP model, substantia nigra cytosol",90 mg/kg,,protein level increase,41.3%
COc1ccc(C2CC(c3ccc(C)cc3)=Nc3ccccc3S2)cc1 (centres unmarked),,"Wistar rat, STZ-induced diabetes, serum","10 mg/kg, 28 days",,total cholesterol,148 mg/dL
CSCC[C@H](N)C(=O)N1CCC[C@H]1C(=O)NCC(=O)NCC(=O)O,"diketopiperazine formation, Arrhenius plot, ESI-MS",1-propanol,"70, 80, 90 °C, 0.5% acetic acid",,activation energy,22.5 ± 3.35 kcal/mol
CC/C=C\C/C=C\C/C=C\C/C=C\C/C=C\CCCCOC(CC)C(=O)O (centres unmarked),,"APOE*3Leiden.CETP mice, high-fat/cholesterol diet","dose not given, 20 weeks",reference: control,inflammatory aggregates change,-62%
N[C@@H](Cc1ccccc1)C(=O)N1CCC[C@H]1C(=O)NCC(=O)NCC(=O)O,"diketopiperazine formation, Arrhenius plot, ESI-MS",1-propanol,"70, 80, 90 °C, 0.5% acetic acid",,activation energy,21.3 ± 1.67 kcal/mol
CCCC[C@H](NC(=O)[C@@H](NC(=O)[C@H](CC(=O)O)NC(=O)[C@H](CCC(N)=O)NC(=O)[C@H](CC(C)C)NC(=O)[C@H](CC(C)C)NC(=O)[C@H](CCCN)NC(=O)[C@H](CCCNC(=N)N)NC(=O)[C@H](C)NC(=O)[C@H](CO)NC(=O)[C@H](CC(C)C)NC(=O)[C@H](CCC(N)=O)NC(=O)[C@H](CC)NC(=O)[C@H](CC(C)C)NC(=O)[C@@H](NC(=O)[C@H](CCCN)NC(=O)[C@H](CCCNC(=N)N)NC(=O)[C@H](Cc1ccc(O)cc1)NC(=O)[C@H](CO)NC(=O)[C@H](CCC(N)=O)NC(=O)[C@@H](NC(=O)[C@H](Cc1ccccc1)NC(=O)[C@@H](NC(=O)[C@H](C)NC(=O)[C@H](CC(=O)O)NC(=O)[C@@H](C)NC(=O)[C@H](Cc1ccc(O)cc1)N(C)C(C)=O)[C@@H](C)CC)[C@@H](C)O)C(C)C)[C@@H](C)CC)C(=O)N[C@@H](CC(=O)O)C(=O)NCCCCNC(=N)N,GH release,"rat, male, serum","subcutaneous, 3 µg/kg, 15 min",reference: reference GHRH agonist JI-38,relative potency,0.3
CN(C)C(=O)c1ccnc(N2Cc3cn(Cc4ccc(F)cc4F)nc3C2)n1,,"cuprizone-fed mice, corpus callosum",dose not given,,NeuN+ cell number,no effect
COc1c2c(cc3oc(COC4OC(CO)C(O)C(O)C4O)cc(=O)c13)OC(C(C)(C)O)C2 (centres unmarked),analgesic effect,mouse,"oral, 1 mg/kg, 1 h",,hot plate latency,9.48 ± 1.4 s
O=C1c2c(O)cc(O)c(-c3ccc(O)c(O)c3)c2OC1Cc1ccc(O)c(O)c1 (centres unmarked),"ABTS scavenging, absorbance",,,,EC50,1130 µM
Sc1nnc(-c2ccccc2)o1,H2O2 scavenging,,,,IC50,121 ± 4.4 µM

# A few entries again:
SMILES,assay,system,conditions,scale,measurement,value
CC(=O)Nc1cccc(CNC(=O)c2cnc3ccccc3c2C(F)(F)F)c1,larval locomotion,Drosophila melanogaster Tip60 RNAi larvae,"oral in food, dose not given",,effective concentration,≥ 1 µM
CSCC[C@H](N)C(=O)N1CCC[C@H]1C(=O)NCC(=O)NCC(=O)O,"diketopiperazine formation, Arrhenius plot, ESI-MS",1-propanol,"70, 80, 90 °C, 0.5% acetic acid",,activation energy,22.5 ± 3.35 kcal/mol
Cc1nc(C)c(C=[N+]([O-])C(C)(C)C)nc1C,"Western blot, refers to: PGC-1α","mouse, MPTP model, substantia nigra cytosol",90 mg/kg,,protein level increase,41.3%
CC(CCC(=O)NCc1ccc(C(=O)NO)cc1)C1CCC2C3C(O)CC4CC(O)CCC4(C)C3CCC12C (centres unmarked),,PCK rats,"oral gavage, 15 mg/kg/day, 5 months",reference: untreated,liver weight,decreased
